# Experimental data pooled from the literature.
# ± gives the spread as reported.
Compound,test,system,setting,scale,measurement,value
Cn1c(Cc2ccccc2)nnc1Sc1ccc([N+](=O)[O-])cc1C(=O)N1CCOCC1,,octanol/buffer,"pH 11, known kinase inactives set",,logP,1.48
Cc1cc(-c2nccc3c2ccn3CC(=O)Nc2ccc(-c3cnccn3)cn2)ccn1,,human,"15 mg once daily, multiple ascending dose",,subjects with coronavirus infection,11.1%
O=C(Nc1ccc(OC(F)(F)Cl)cc1)c1cnc(N2CC[C@@H](O)C2)c(-c2ccn[nH]2)c1,"per laboratory record, measured: hemoglobin decrease",human patients,"oral, dose not given",,grade ≥3 event rate,0.1%
CN1CCN(c2cccc3c2CCN(C(=O)/C=C/c2c(-n4cnnn4)ccc(Cl)c2F)[C@@H]3C(=O)Nc2ccc(C(=O)O)cc2)C(=O)C1,,healthy human subjects,"intravenous infusion, 1.5 mg/h, 2 h",,subjects with any adverse event,33.3%
C=CC(=O)Nc1cc(Nc2nccc(Nc3cc(Cl)c(F)cc3C(C)(C)O)n2)c(OC)cc1N1CC[C@@H](N(C)C)C1,,"human patients, plasma","oral, 300 mg daily, cycle 2 day 1, geometric mean",,"Css,max",521 ng/mL
CCNCCNC(=O)c1c(C)[nH]c(/C=C2\C(=O)Nc3ccc(F)cc32)c1C,,"human, serum",25 mg maintenance dose,,serum concentration,17.5 ng/mL
COc1cc(Nc2ncc3c(n2)-c2ccc(Cl)cc2C(c2c(F)cccc2OC)=NC3)ccc1C(=O)O,"measured: Hyponatremia, grade 1","cancer patients, phase 1/2","oral, dose not given, together with: pembrolizumab",,patients with adverse event,46%
CCCS(=O)(=O)Nc1ccc(F)c(C(=O)c2c[nH]c3ncc(-c4ccc(Cl)cc4)cc23)c1F,one-compartment model,"tumour xenograft mouse, plasma","oral, dose not given",,CL/F,0.0772 L/h/kg
CC1(C)CCC(CN2CCN(c3ccc(C(=O)NS(=O)(=O)c4ccc(NCC5CCOCC5)c([N+](=O)[O-])c4)c(Oc4cnc5[nH]ccc5c4)c3)CC2)=C(c2ccc(Cl)cc2)C1,,human,concentration not given,,absolute neutrophil count,400 to 900 cells/µL
O=C(Nc1nc2cccc(-c3ccc(CN4CCS(=O)(=O)CC4)cc3)n2n1)C1CC1,measured: gastrointestinal pain,human rheumatoid arthritis patients,"oral, 200 mg once daily, 4 weeks, regardless of relatedness",,treatment-emergent adverse events,0%
Cc1cc(NC(=O)c2cccc(NC(=O)/C=C/CN(C)C)c2)ccc1Nc1nccc(-c2cccnc2)n1,,"Wistar rat male, primary hepatocytes",,,scaled intrinsic clearance,15.1 mL/min/kg
C=CCNc1nc(C)c(-c2ccnc(Nc3cccc([N+](=O)[O-])c3)n2)s1,,octanol/buffer,pH 11,,logP,4.8
Cc1ccc([C@@H]2O[C@H](CO)[C@@H](O)[C@H](O)[C@H]2O)cc1Cc1ccc(-c2ccc(F)cc2)s1,,Japanese type 2 diabetes patients,"100 mg, day 17, 24 h urine collection",reference: baseline,urinary sodium excretion change,-73.5 mEq
Cc1ncnc2c1ccn2[C@@H]1C[C@H](Oc2cc(C(F)F)c(F)c3c2CNCC3)[C@@H](O)[C@H]1O,,human,"oral, 6 mg twice daily",reference: AUC(tau) multiple over single dose,accumulation ratio,4.01
O=C(COc1ccc(Cl)cc1)NC12CC(c3nnc([C@H]4C[C@@H](OC(F)(F)F)C4)o3)(C1)C2,,human both sexes,"oral, 400 mg single dose",,participants with TEAE,100%
C=CC(=O)Nc1cc(Nc2nccc(-c3cn(C)c4ccccc34)n2)c(OC)cc1N(C)CCN(C)C,storage stability,human dried blood spot,"30 d, on ice, LLOQ level",,recovery,60.2%
CC(C)c1nc(CN(C)C(=O)N[C@@H](CCN2CCOCC2)C(=O)N[C@H](CC[C@H](Cc2ccccc2)NC(=O)OCc2cncs2)Cc2ccccc2)cs1,,"female mouse, plasma","oral, 30 mg/kg",,total AUC,13.2 µM·h
Cn1cc(Nc2nccc(-c3ccc4c(c3)CN(C3COC3)CC[C@H]4NC(=O)c3cn(C(C)(C)C)nn3)n2)cn1,measured: CD4+ T cell count,"human, clinical trial, whole blood","150 mg twice daily, follow-up",,percent change from baseline,8.78%
NC1(C(=O)N[C@@H](CCO)c2ccc(Cl)cc2)CCN(c2nc[nH]c3nccc2-3)CC1,,metastatic CRPC patients,"480 mg b.i.d., any grade, treatment-related, together with: enzalutamide 160 mg daily",,incidence of Blindness,0%
CCO[C@H]1CCN(Cc2c(OC)cc(C)c3[nH]ccc23)[C@H](c2ccc(C(=O)O)cc2)C1,,"human healthy controls, plasma","oral, 200 mg single dose, median",,unbound AUC0–12,2990 ng·h/mL
Cn1cnc2c(F)c(Nc3ccc(Br)cc3Cl)c(C(=O)NOCCO)cc21,population PK model,"human, plasma","oral, zero-order absorption model, fed",,zero-order absorption duration,5.81 h
C/C(=N\c1ccc(O)cc1)c1cc2ccccc2n1C,,rat plasma,"1000 ng/mL, 4 h, room temperature",reference: nominal concentration,remaining compound,82.8 ± 6.3%
COc1ncc(-c2nc3c(n2C(C)C)[C@H](c2ccc(Cl)cc2)N(c2cc(Cl)cn(C)c2=O)C3=O)c(OC)n1,,"human patients, plasma","oral, 15 mg, 0-24 h, low-dose arm, cycle 2 day 1",,AUC(0-t) geometric mean,1570 ng·h/mL
COCCCC/C(=N\OCCN)c1ccc(C(F)(F)F)cc1,"total metabolite formation, inhibitor",human hepatocytes suspension,"1 µM, 90 min, together with: ropinirole 1 µM",,inhibition,85%
O=C(O)[C@H]1O[C@@H](Oc2cc(-c3oc4cc(O)cc(O)c4c(=O)c3O)ccc2O)[C@H](O)[C@@H](O)[C@@H]1O,,"human, cerebrospinal fluid","concentration not given, mean",,CSF concentration,4.5 nM
CCc1cc(C(=O)NC)c2nccc(N3CCc4c(cc(Cn5ccnc5)cc4-c4cn(C)nc4C(F)(F)F)C3=O)c2c1,,Sprague Dawley rats,"oral, 100 mg/kg twice daily, 7 days",,serum UREA level,6.7 ± 0.32 mmol/L
Cc1cc(NC2CCN(C(=O)OC3CCN(C(=O)/C=C/CN(C)C)C3)CC2)n2ncc(C(C)C)c2n1 (stereo not drawn),"CTCAE v4.0, measured: Dizziness",patients with advanced solid tumours,"oral, dose not given, TIW, grade 3 or higher",,patients with TEAE,0%
C[C@@H](N)C1CCN(S(=O)(=O)c2cccc3cnccc23)CC1,,healthy volunteers,"250 mg, fasted",,participants with epistaxis,0%
CCN1CCN(Cc2ccc(Nc3ncc(F)c(-c4cc(F)c5nc(C)n(C(C)C)c5c4)n3)nc2)CC1,mass balance,"human, both sexes","oral, 150 mg, time not given, together with: 14C-labelled compound",,fecal recovery,8.84%
C[C@@H]1[C@H](c2c(F)ccc(F)c2F)C[C@H](NC(=O)c2cnc3c(c2)C[C@@]2(C3)C(=O)Nc3ncccc32)C(=O)N1CC(F)(F)F,,"human, plasma and blood","oral, solution formulation, model",reference: tablet,decrease in lag time,19.1%
CO[C@H]1C[C@@H]2CC[C@@H](C)[C@@](O)(O2)C(=O)C(=O)N2CCCC[C@H]2C(=O)O[C@H]([C@H](C)C[C@@H]2CC[C@@H](O)[C@H](OC)C2)CC(=O)[C@H](C)/C=C(\C)[C@@H](O)[C@@H](OC)C(=O)[C@H](C)C[C@H](C)/C=C/C=C/C=C/1C,,healthy adult horses,"oral, 0.06 mg/kg, 6 h",,rectal temperature,37.5 ± 0.4 °C
OC[C@H]1OC(O)[C@H](O)[C@@H](O)[C@@H]1O (stereo partly drawn),,aqueous solution,"25 mM, together with: glucosamine",,osmolality,22 mOsmol/kg
CN(CC#N)C(=O)C[C@H](Nc1nc2ccccc2[nH]1)c1cccc(C(F)(F)F)c1,,human,"intravenous infusion, 6 mg/kg, 1 mg/mL formulation",,steady-state volume of distribution,65 ± 12 L
CCN1CCN(Cc2ccc(Nc3ncc(F)c(-c4cc(F)c5nc6n(c5c4)[C@H](C)CCC6)n3)nc2)CC1,,"human, plasma","400 mg single dose, mean",,Vd/F,1830 L
CC(=O)c1ccc([C@H]2C[C@@]3(C)[C@@H](CC[C@@]3(O)C(F)(F)C(F)(F)F)[C@@H]3CCC4=CC(=O)CCC4=C32)cc1,,"human, pooled serum","oral, 200 mg, day 1, 1.5 h",,serum concentration,20.8 ng/mL
Cc1ccnc(NS(=O)(=O)c2ccc(NC(=O)c3cncc(Br)c3)cc2)n1,,octanol/buffer,"pH 11, known kinase inactives set",,logP,-0.44
CCOc1c([C@H](C)n2nc(C)c3c(N)ncnc32)cc(Cl)c(F)c1[C@@H]1CNC(=O)C1,ECG,previously treated B-cell malignancy patients,"oral, 10 mg once daily, baseline QTcF ≤450 ms",,observations QTcF >480 ≤500 ms,0%
CC(C)(C(=O)N1CCOc2c(C#N)cncc2C1)C(F)F,,"human, both sexes, plasma","oral, 20 mg twice daily, multiple ascending dose",reference: day 14 over day 1,accumulation ratio AUC(0-12h),1.63
Cn1ncnc1[C@H]1c2n[nH]c(=O)c3cc(F)cc(c23)N[C@@H]1c1ccc(F)cc1,,"human patients, plasma","oral, 400 µg/m2, dose level DL2, median, together with: temozolomide 20 mg/m2 daily days 2-6",,accumulation half-life,2.27 days
CNCc1ccc(-c2[nH]c3cc(F)cc4c3c2CCNC4=O)cc1,,patients,"oral, 600 mg twice daily, grade 1",,decreased appetite incidence,26.9%
CCn1cc(Cl)c2c(Cc3ccc(C(F)(F)F)nc3)n(C)nc2c1=O,,"rat Sprague-Dawley male, blood","intravenous, 1 mg/kg",,"CLint,u",354 mL/min/kg
N=C(N)c1ccc2cc(NS(=O)(=O)c3ccccc3)ccc2c1,,octanol/buffer,"pH 11, urokinase ligand set",,logP,-0.29
COc1ccc([C@@H](O)c2cc(-c3ncnc4cc(N5CCOCC5)ccc34)c(F)cc2Cl)nn1,,locally advanced rectal cancer patients,"150 mg, together with: capecitabine and radiotherapy",,decreased appetite TEAE incidence,50%
C[C@@H](O)CCOC(=O)C[C@@H](C)O,measured: bicarbonate,"human, venous blood","oral, dose not given, 60 min",reference: baseline,decrease,-3 mEq/L
CCN1/C(=C/C(C)=O)Sc2ccc(F)cc21,,cynomolgus monkey,"oral, 10 mg/kg, 24 h post-dose",reference: pre-dose,mean blood pressure change,108 ± 7.7%
C[C@@H](O)[C@H](NC(=O)c1ccc(C#Cc2ccccc2)cc1)C(=O)NCC1(C)NC(=O)NC1=O (stereo partly drawn),,octanol/buffer,pH 11,,logP,0.99
Nc1c(CC(=O)O)cccc1C(=O)c1ccc(Br)cc1,,cynomolgus monkey hepatocytes,,,scaled metabolic intrinsic clearance,47.1 mL/min/kg
C=CC(=O)N1CCC([C@@H]2CCNc3c(C(N)=O)c(-c4ccc(Oc5ccccc5)cc4)nn32)CC1,,rat plasma,"autosampler, freeze-thaw, short- and long-term storage",,stability,stable
COc1ccc2c(=O)n(C)c(-c3ccccc3)nc2c1,,"male Sprague-Dawley rat, testis","oral, 30 mg/kg, 2 h",,tissue concentration,32.2 ng/g
CC(C)n1c(Nc2cccnc2)nc2cnc(Nc3ccc(N4CCN(C)CC4)cc3)nc21,measured: nodal rhythm,healthy male subjects,"oral, 100 mg, study, together with: itraconazole",,subjects with adverse event,0%
CNC(=O)c1ccc(-c2cnc3ncc(Cc4ccc5ncccc5c4)n3n2)cc1F,,Japanese patients,"oral, 400 mg, grade 3/4",,Platelet count decreased dose reduction/interruption,2%
COCCOc1cnc2ccn([C@H](C)c3nnc4c(F)cc(-c5cnn(C)c5)cn34)c(=O)c2c1,,"patients, plasma","oral, 150 mg twice daily, day 28, 300 per day",,Cmax,4310 ng/mL
Cc1c(NS(=O)(=O)c2cccc3nonc23)c(=O)n(-c2ccccc2)n1C,,octanol/buffer,"pH 11, known kinase inactives set",,logP,-0.81
Cc1nc2cccc(OCC(C)(C)C(=O)NC(C)C)c2c(N)c1C(=O)O,,"male CD-1 mouse, bone marrow","oral, 2000 mg/kg, 24 h",,micronucleated normochromatic erythrocytes,0.6 per 2000 PCEs
CCCCC1=NC2(CCCC2)C(=O)N1Cc1ccc(-c2ccccc2S(=O)(=O)Nc2noc(C)c2C)c(COCC)c1,,"healthy adult volunteers, plasma","oral, 400 mg, single dose, fasted, crushed tablet",,AUC(0-inf),83000 ng·h/mL
Cc1cc(C)c(S(=O)(=O)N(C)CC(=O)N2CCC(C(N)=O)CC2)c(C)c1,,octanol/buffer,pH 11,,logP,1.38
N#Cc1ccc2c(c1)[C@H]1CCCN(C(=O)c3ccc4[nH]cnc4c3)[C@H]1C2,,human,"160 mg, day 15",reference: baseline,ACTH level change,0.8 pmol/L

# For quick reference, copied from above:
Compound,test,system,setting,scale,measurement,value
Nc1c(CC(=O)O)cccc1C(=O)c1ccc(Br)cc1,,cynomolgus monkey hepatocytes,,,scaled metabolic intrinsic clearance,47.1 mL/min/kg
CN1CCN(c2cccc3c2CCN(C(=O)/C=C/c2c(-n4cnnn4)ccc(Cl)c2F)[C@@H]3C(=O)Nc2ccc(C(=O)O)cc2)C(=O)C1,,healthy human subjects,"intravenous infusion, 1.5 mg/h, 2 h",,subjects with any adverse event,33.3%
C=CCNc1nc(C)c(-c2ccnc(Nc3cccc([N+](=O)[O-])c3)n2)s1,,octanol/buffer,pH 11,,logP,4.8
CCCS(=O)(=O)Nc1ccc(F)c(C(=O)c2c[nH]c3ncc(-c4ccc(Cl)cc4)cc23)c1F,one-compartment model,"tumour xenograft mouse, plasma","oral, dose not given",,CL/F,0.0772 L/h/kg
COc1cc(Nc2ncc3c(n2)-c2ccc(Cl)cc2C(c2c(F)cccc2OC)=NC3)ccc1C(=O)O,"measured: Hyponatremia, grade 1","cancer patients, phase 1/2","oral, dose not given, together with: pembrolizumab",,patients with adverse event,46%
OC[C@H]1OC(O)[C@H](O)[C@@H](O)[C@@H]1O (stereo partly drawn),,aqueous solution,"25 mM, together with: glucosamine",,osmolality,22 mOsmol/kg
C[C@@H]1[C@H](c2c(F)ccc(F)c2F)C[C@H](NC(=O)c2cnc3c(c2)C[C@@]2(C3)C(=O)Nc3ncccc32)C(=O)N1CC(F)(F)F,,"human, plasma and blood","oral, solution formulation, model",reference: tablet,decrease in lag time,19.1%
Cc1ncnc2c1ccn2[C@@H]1C[C@H](Oc2cc(C(F)F)c(F)c3c2CNCC3)[C@@H](O)[C@H]1O,,human,"oral, 6 mg twice daily",reference: AUC(tau) multiple over single dose,accumulation ratio,4.01
CNC(=O)c1ccc(-c2cnc3ncc(Cc4ccc5ncccc5c4)n3n2)cc1F,,Japanese patients,"oral, 400 mg, grade 3/4",,Platelet count decreased dose reduction/interruption,2%
